Published values collected from several papers.
Every numbered part comes from another study and shows a few of its results, in no order.
Chain of UniProt P41595 (whole entry, looked up): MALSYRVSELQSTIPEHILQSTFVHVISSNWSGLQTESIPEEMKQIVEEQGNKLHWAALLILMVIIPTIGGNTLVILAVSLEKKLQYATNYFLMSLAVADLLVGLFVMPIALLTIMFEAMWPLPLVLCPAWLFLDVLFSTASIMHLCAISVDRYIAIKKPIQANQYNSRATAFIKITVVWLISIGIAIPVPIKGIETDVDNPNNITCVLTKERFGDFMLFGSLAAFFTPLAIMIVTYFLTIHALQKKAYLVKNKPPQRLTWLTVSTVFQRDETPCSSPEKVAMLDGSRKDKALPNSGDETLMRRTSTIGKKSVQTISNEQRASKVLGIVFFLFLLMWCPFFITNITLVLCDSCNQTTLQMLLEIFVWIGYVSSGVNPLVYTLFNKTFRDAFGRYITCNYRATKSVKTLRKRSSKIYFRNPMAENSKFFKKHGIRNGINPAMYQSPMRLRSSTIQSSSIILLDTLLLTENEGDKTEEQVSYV

Sample 1 — read-out: enzyme activity; action: inhibitor; concentration: 0.5 µM; baseline: control
Target: cAMP-dependent protein kinase catalytic subunit PRKX (PRKX, Homo sapiens, UniProt P51817)
Residues (P51817 1-358): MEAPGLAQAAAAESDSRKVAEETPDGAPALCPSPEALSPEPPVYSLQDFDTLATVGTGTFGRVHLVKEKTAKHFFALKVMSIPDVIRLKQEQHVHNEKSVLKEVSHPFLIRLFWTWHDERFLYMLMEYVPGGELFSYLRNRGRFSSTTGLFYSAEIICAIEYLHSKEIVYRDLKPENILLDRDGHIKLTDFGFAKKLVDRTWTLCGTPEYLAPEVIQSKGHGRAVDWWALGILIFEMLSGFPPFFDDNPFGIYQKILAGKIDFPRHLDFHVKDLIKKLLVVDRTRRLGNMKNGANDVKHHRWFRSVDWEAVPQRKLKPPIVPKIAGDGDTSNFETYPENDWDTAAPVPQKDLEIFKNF
| SMILES | remaining activity [%] |
| --- | --- |
| CCc1[nH]c(-c2ccc(OC)cc2)nc1-c1ccncc1 | 93.3 |
| O=S(=O)(NCCNC/C=C/c1ccc(Br)cc1)c1cccc2cnccc12 | -2.49 |
| COc1ccc(S(=O)(=O)N(CCO)c2ccccc2CN(C)CC=Cc2ccc(Cl)cc2)cc1 | 104 |
| Oc1ccc(Nc2nc(-c3ccc(Cl)cc3)cs2)cc1 | 99.6 |
| Cc1ccc(NC2=CC(=O)c3sc(C)nc3C2=O)cc1 | 96.8 |
| CC(=O)c1ccc(N2CCOCC2)cc1O | 105 |
| Cc1cncc2cccc(S(=O)(=O)N3CCCN(C(=O)CN)C[C@@H]3C)c12 | 54.2 |
| CCCC(=O)Oc1ccc2[nH]c(C(=O)c3cc4ccccc4[nH]3)cc2c1 | 96.1 |
| COc1cc(Nc2c(C#N)cnc3cc(OCCCN4CCN(C)CC4)c(OC)cc23)c(Cl)cc1Cl | 110 |
| CC#CC(=O)Nc1cc2c(Nc3ccc(F)c(Cl)c3)ncnc2cn1 | 103 |
| N#CC(=C(N)Sc1ccc(N)cc1)c1ccccc1C(F)(F)F | 98.9 |
| O=C1Cc2c([nH]c3ccc([N+](=O)[O-])cc23)-c2ccccc2N1 | 74.5 |
| Fc1ccc(-c2nc3n(c2-c2ccncc2)CCS3)cc1 | 97.6 |
| CSc1nc(-c2ccnc(N[C@@H](C)c3ccccc3)c2)c(-c2ccc(F)cc2)[nH]1 (racemic) | 91.5 |
| Nc1nccc(-c2c(-c3ccc(F)cc3)ncn2C2CCNCC2)n1 | 96.8 |
| Nc1nc(Nc2ccc(S(N)(=O)=O)cc2)nn1C(=O)c1c(F)cccc1F | 89 |
| Nc1ncnc2c1cnn2-c1ccccc1 | 95.3 |
| Cc1cc(Nc2nc(-c3ccccc3)nc3ccccc23)n[nH]1 | 101 |
| CC(C)(C)n1nc(Cc2cccc3ccccc23)c2c(N)ncnc21 | 103 |
| O=C1NC(=O)C(c2c[nH]c3ccccc23)=C1c1c[nH]c2ccccc12 | 99.5 |
| NC(=O)c1ccc(N(C(N)=O)c2c(F)cccc2F)nc1-c1ccc(F)cc1F | 123 |

Sample 2 — host: mouse; matrix: microsomes or S9; concentration: 2 µM; time: 0.5 h
| SMILES | remaining compound |
| --- | --- |
| Cc1c(C(=O)N[C@H]2CCOC[C@H]2C2CCOCC2)c2cc(O)ccc2n1C | 23.2% |
| COc1cc(=O)n2c(c1C(=O)NCc1ccc(F)cc1)CCCC2 | 53.3% |
| NC(=O)c1cccc2cc(CN3CCN(c4ccccc4Cl)CC3)oc12 | 21.3% |
| O=C(NC1=C(C(=O)c2ccccc2)N(Cc2ccccc2)S(=O)(=O)c2ccccc21)c1ccccc1 | 0.804% |
| CCN1CCC(N(C)S(=O)(=O)c2c(C)cc(C(C)(C)C)cc2C)CC1 | 4.45% |
| N#Cc1c(-c2ccccc2)cc(O)n2c1nc1ccccc12 | 2.55% |
| O=C(Nc1cccc2c1N(c1ncccn1)CC2)c1ccccc1 | 0.0814% |
| O=C(Nc1nc2ccc(F)cn2n1)NC1C2CCOC2C12CCC2 (centres unmarked) | 29.3% |
| CCC(CC)C(=O)N(Cc1ccccc1)Cc1nc(N(C)C)ncc1-c1ccccn1 | 0.873% |
| COc1ccc(C(C)Nc2cncc(-c3nncn3C)c2)cc1F (centres unmarked) | 90% |

Sample 3 — method: KINOMEscan; concentration: 10 µM; reading: lower = stronger binding
Structure (SMILES): COc1cc(C(=O)N2CCC(N3CCN(C)CC3)CC2)ccc1Nc1ncc2c(n1)N(C)c1ccccc1C(=O)N2C
| target | binding (% of control) |
| --- | --- |
| S6K1 | 100% |
| ABL1-nonphosphorylated | 100% |
| ABL1(F317I)-phosphorylated | 17% |
| PKAC-alpha | 100% |
| p38-gamma | 76% |
| SgK110 | 62% |
| MLCK | 100% |
| p38-beta | 60% |
| ABL1(T315I)-nonphosphorylated | 100% |
| MRCKA | 100% |
| SNARK | 47% |
| FAK | 34% |
| ABL1(Y253F)-phosphorylated | 89% |
| LZK | 100% |

Sample 4 — organism: Plasmodium berghei; action: inhibitor; cell line: Huh-7; strain: GFP-expressing sporozoites, liver stage; concentration: 10 µM; time: 24 h; baseline: untreated control
| SMILES | infection rate [%] |
| --- | --- |
| CCN(CCCc1ccccc1)CCCc1ccccc1 | 94.3 |
| NC(=O)N1c2ccccc2C=Cc2ccccc21 | 108 |
| Oc1c(I)cc(Cl)c2cccnc12 | 53.6 |
| O=C1c2ccccc2C(=O)C1c1ccc(Br)cc1 | 87.8 |
| C[C@H](CCC(=O)O)[C@H]1CC[C@H]2[C@@H]3[C@H](O)C[C@@H]4C[C@H](O)CC[C@]4(C)[C@H]3CC[C@]12C | 92.9 |
| O=C1C(O)=C([C@H]2CC[C@H](c3ccc(Cl)cc3)CC2)C(=O)c2ccccc21 | 9.06 |
| CCCCN1CCCCC1C(=O)Nc1c(C)cccc1C (centres unmarked) | 107 |

Other studies, line by line
| SMILES | target | read-out | endpoint | result |
| --- | --- | --- | --- | --- |
| Cn1c(-c2csc(C3CCN(Cc4nc5ncccc5[nH]4)CC3)n2)nc2ccccc21 | 5-hydroxytryptamine receptor 2B (HTR2B, Homo sapiens, UniProt P41595) | binding | Ki | 1580 nM |

Repeated from above (sample 2):
| SMILES | remaining compound |
| --- | --- |
| N#Cc1c(-c2ccccc2)cc(O)n2c1nc1ccccc12 | 2.55% |
| O=C(Nc1cccc2c1N(c1ncccn1)CC2)c1ccccc1 | 0.0814% |
| O=C(Nc1nc2ccc(F)cn2n1)NC1C2CCOC2C12CCC2 (centres unmarked) | 29.3% |
| CCC(CC)C(=O)N(Cc1ccccc1)Cc1nc(N(C)C)ncc1-c1ccccn1 | 0.873% |
